Published values pooled from the literature.
A part holds a random share of what one study measured.

Series 1
Target: Cyclic AMP-dependent transcription factor ATF-1 (ATF1, Homo sapiens, UniProt P18846, residues 1-271, full length assumed)
Technique: protein-binding microarray
Molecule type: double-stranded DNA, one strand shown
Matrix: in vitro
Concentration: not given
Setting: k-mer, scored over probes, only values ≥0.25
Reading: higher = stronger binding
Target sequence (chain): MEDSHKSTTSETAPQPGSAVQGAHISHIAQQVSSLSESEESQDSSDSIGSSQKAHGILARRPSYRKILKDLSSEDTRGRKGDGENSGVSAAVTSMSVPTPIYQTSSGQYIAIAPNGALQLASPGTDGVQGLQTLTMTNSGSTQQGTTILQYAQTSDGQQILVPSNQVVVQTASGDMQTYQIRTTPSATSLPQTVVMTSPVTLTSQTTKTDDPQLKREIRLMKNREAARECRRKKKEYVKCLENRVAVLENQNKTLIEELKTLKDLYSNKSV
Oligonucleotide | E-score
AACGTAT | 0.294
CATGACG | 0.473
GACGCAA | 0.331
TACGTCA | 0.494
CGTCAGA | 0.414
ACGTGTA | 0.326
AGTAACG | 0.272
ACGTATG | 0.406

Series 2
Target: POU, POU domain (Salpingoeca helianthica)
Technique: Spec-seq
Molecule type: double-stranded DNA, one strand shown
Matrix: in vitro
Concentration: not given
Setting: whole probe, mean of replicates
Reference: not given
Reading: lower = stronger binding
Constant ends, left off below: GAGTCGTCTCGTCAGCAC … ATCCGTAGAGCACTCAGGTC
Target sequence (chain): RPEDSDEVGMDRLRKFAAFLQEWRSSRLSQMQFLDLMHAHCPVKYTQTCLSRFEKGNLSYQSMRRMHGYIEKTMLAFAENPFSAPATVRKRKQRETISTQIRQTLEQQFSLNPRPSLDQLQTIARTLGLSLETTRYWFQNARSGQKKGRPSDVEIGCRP
Oligonucleotide | relative binding energy [ln ratio]
CCGCTA | 0.658
ATTTTA | -0.146
ATATTC | 0.997
ATCGAT | 0.823
ATCACA | 1.09
ATACCT | 0.984
ATCCGG | 1.36
ATCCAT | 0.933

Single results of other studies
Molecule | target or system | assay | system | conditions | how to read | endpoint | value
NCCNc1ncc(C(N)=O)c(Nc2cccc(C(F)(F)F)c2)n1 | ERBB2 (Homo sapiens, UniProt P04626) | enzyme activity, inhibitor | – | 0.5 µM | reference: control | remaining activity | 91.1%
DDX46 (Homo sapiens, UniProt Q7L014) | PNMA8A (Homo sapiens, UniProt Q86V59) | cross-linking MS | cells | with: BSPNO | – | cross-linked residues | K907 to K258

Excerpt of the above (single results of other studies):
Molecule | target or system | assay | system | conditions | how to read | endpoint | value
DDX46 (Homo sapiens, UniProt Q7L014) | PNMA8A (Homo sapiens, UniProt Q86V59) | cross-linking MS | cells | with: BSPNO | – | cross-linked residues | K907 to K258
